# Measurements pooled from the literature.
# Parts stem from different laboratories: compare values within a part only.

# Study 1
# Target: Ras GTPase-activating protein-binding protein 1, full length (G3BP1, Homo sapiens, UniProt Q13283)
# Chain of UniProt Q13283 (whole entry, looked up): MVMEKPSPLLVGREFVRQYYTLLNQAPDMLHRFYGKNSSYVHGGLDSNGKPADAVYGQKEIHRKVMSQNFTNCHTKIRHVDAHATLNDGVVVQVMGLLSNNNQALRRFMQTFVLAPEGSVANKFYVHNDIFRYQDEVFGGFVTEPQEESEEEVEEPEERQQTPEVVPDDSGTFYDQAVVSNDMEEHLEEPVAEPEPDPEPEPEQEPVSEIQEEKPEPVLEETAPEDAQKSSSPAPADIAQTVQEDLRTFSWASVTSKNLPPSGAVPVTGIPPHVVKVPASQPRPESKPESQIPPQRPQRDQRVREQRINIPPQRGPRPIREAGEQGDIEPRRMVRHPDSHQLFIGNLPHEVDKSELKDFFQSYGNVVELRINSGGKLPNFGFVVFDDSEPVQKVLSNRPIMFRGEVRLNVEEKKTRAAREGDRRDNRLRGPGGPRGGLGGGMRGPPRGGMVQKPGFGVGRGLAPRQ
# Technique: RNA Bind-n-Seq
# Form: RNA
# Matrix: in vitro
# Concentration: 200 nM
# Setting: whole 134-nt RNA, ends assumed
# Together with: 150 mM KCl
# Baseline: input library
# Reading: higher = stronger binding
# All sequences stand within: GGGAGUUCUACAGUCCGACGAUC … UGGAAUUCUCGGGUGUCAAGG
Oligonucleotide,log2 enrichment
UGGGAGGUGGAUUUUGUUUAUUUUUUUAGCUCAUUUCCAGGGGUGGGAAUUUUUUUUUAAUAUGUGUCACGAAUAAAGUUGUUUUUGAAA,0.469
CCUGUGCUACACAUCGUAUGUACCGAAUCGGGGAAAAAGGGGUUUUUGGGGUUUUUGGGGAAAGUAUUAUGUUACGCCGUUCGGAUCUGC,0.283
CUCAAGUCCUGUGCUACACAUCGUAUGUACCGAAUCGGAAAGGUUUGGAAAGGAAAGUAUUAUGUUACGCCGUUCGGAUCUGCACUUCCA,-0.577
UAACUAUAGAGGAGGAUCUGAUGGAUAUGGCAGUGGACGUGGAUUUGGGGAUGGCUAUAAUGGGUAUGGAGGAGGACCUGGAGGUGGCAA,0.408
UUUUACAUUUAUACACAUGUAUUGGCUUCCUUUUACACUAUUAGGCGGUCAAGAAGCAGAUCGAGACGGCGGUCACAUUCUAAGUCUAGG,0.335
UGGCCCUGGUGGCAUGCGGGGAGGAAGAGGUGACCUCAUGGAUCGUGGUGGUCCCGGUGGAAUGUUCAGAGGUGGCCGUGGUGGAGACAG,0.203
UUCAGUUUCCCAAACCUGAGAUGAUCUGUCAGCUGGAGAACUGGGACGAGCAGUGGAUCCUGGAUCUACCGAGAACUGGGAAUAGGAAGG,0.324
GGUGGAAUCCAUAGAGCUCCCCAUGGACAACAAGACCAAUAAGAGGCGUGGGUUCUGCUUUAUUACCUUUAAGGAAGAAGAACCAGUGAA,-0.0881
GCAGGAAGUAAAAACAAAUGGAAAUGCUUCGGAUAGUGGCAGGAAAGGGGGUUGCUAAGGAAAGGGUGGGAUGGGAGUGGGUAAAGAGUU,0.749
CACAGACAACACGCACCCACACAGACACAGAGGGAAGGGGUUGGGAGGGGGACAGGGUGCACAGCAGGGCGGGGUAGGACCCCAGCCCCU,1.92
AGUCCUGUGCUACACAUCGUAUGUACCGAAUCAAACCCAAACCCCCCCAAACCCAAAAAAGUAUUAUGUUACGCCGUUCGGAUCUGCACU,-0.484
CCUGUGCUACACAUCGUAUGUACCGAAUCGGGGAAAAAAGGGAAAAAAGGGGAAAAAAGGGAAAGUAUUAUGUUACGCCGUUCGGAUCUG,-0.229
UCCUCAAGUCCUGUGCUACACAUCGUAUGUACCGAAUCGGGUGGUGGUGGGGAAAGUAUUAUGUUACGCCGUUCGGAUCUGCACUUCCAG,0.55
ACCAUGCAGGUGGGCAUCUUUGGGAAGUGGGGCAAGGGGGGGAUAGGGAGGGGGGUAACACUUUGGGAACAGUUGGUCCCAGGUCGUUUC,0.93

# Study 2
# Target: Phosphate system positive regulatory protein PHO4, full length, GST-tagged (PHO4, Saccharomyces cerevisiae, UniProt P07270, residues 1-312)
# Technique: competition protein-binding microarray
# Form: double-stranded DNA, one strand shown
# Matrix: in vitro
# Concentration: 2 µM
# Setting: whole 60-bp probe, lowest competitor level
# Together with: Cbf1 competitor, 0.05 µM
# Reading: higher = stronger binding
# All sequences stand within: … GTCTTGATTCGCTTGACGCTGCTG
# Construct (chain): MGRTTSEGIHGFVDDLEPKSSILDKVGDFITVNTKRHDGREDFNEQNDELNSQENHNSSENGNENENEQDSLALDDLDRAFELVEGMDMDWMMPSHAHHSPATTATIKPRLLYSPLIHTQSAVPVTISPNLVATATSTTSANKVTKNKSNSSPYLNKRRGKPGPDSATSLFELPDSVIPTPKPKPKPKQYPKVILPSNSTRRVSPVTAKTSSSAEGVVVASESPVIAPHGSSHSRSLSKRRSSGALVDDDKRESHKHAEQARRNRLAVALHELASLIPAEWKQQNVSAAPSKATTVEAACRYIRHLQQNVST
Oligonucleotide,fluorescence intensity
CTAACGAAGGTTTGGTATGTGGGTGACAAGCCAAGT,4800 a.u.
CGGGGTTAAGTTTGTTCGGTGGGTGGCTTGCAGCAG,4140 a.u.
GCCCGATCCTTTGGACACGTGCCGACAGGACTACTC,15800 a.u.
CGGGGTTAAGTTTGTGTGGTGGGTGGCTTGCAGCAG,4990 a.u.
TCAAGAAATTTAGCTCGCGTGGCCGAATGGCAACGC,6830 a.u.
TTACTATTTGTGTCCCACGTGCTTTATTGTCTTATG,18100 a.u.
TACAGTTGGGTCCATCACATGCAAACATTTCTCCAA,7750 a.u.
GGAATTCCAGCACCACTCGTGCAAAACGTACCAAAT,8110 a.u.
GGAGTTGATGTGTCTAGTGTGACAGGTTCATTTGCC,4310 a.u.
TGGCAGTAACACCGTCACGCTTTTCATGTTTATGGC,6310 a.u.
GACCTAAGTCAGTCAAATTGTACTATCCCTGATCCT,2580 a.u.
CGCCGACTCTGCGCATTCGTGGCCGCTGCTCACTCC,5150 a.u.
GTCTTGTCTCATTGGATGGTGGGTGTCCCCACTTCA,5710 a.u.
CTTCTGTAAATTTGTCACATGACTTGACGCGCCCCG,6010 a.u.
GCAGCAGTGGCCGCACTCGTGGCCGTCGAGTCATCG,8940 a.u.
TATTTTTTTTTTTTTTATTTTGGTAGAATAGATTAC,3150 a.u.
AAGCTGAAAAGGCTAAACGTGCCGAGTCCAGCCAAA,9960 a.u.
CGCTTTCTAAGGAGCCACGTGTAGGGGGAGCTGGTG,16200 a.u.
TATCGTCATATAAAAAACGTGCAAAGTATATGTAAC,14800 a.u.
AAAGCGGTAATTTTGCACGTGTTTTCACATATCTAT,20500 a.u.
TATAAGTATCCTTCAGACGTGCAAATTCTTCAGGGC,4950 a.u.
CTTCTGTAAATTTGCGCGGTGGGTGGACGCGCCCCG,3980 a.u.
CTTCTGTAAATTTGTCACAAGACTTGACGCGCCCCG,4120 a.u.
ATAAGCTTTTAGAAACACGTGATGGAAGAACCAGAG,16600 a.u.

# Study 3
# Target: RNA binding protein fox-1 homolog 2, RRM domain, GST-SBP tag (RBFOX2, Homo sapiens, UniProt O43251-10, residues 100-194)
# Technique: RNA Bind-n-Seq
# Form: RNA
# Matrix: in vitro
# Concentration: 365 nM
# Setting: natural RNA segment, single round, ends assumed
# Baseline: no-protein control
# Reading: higher = stronger binding
# All sequences stand within: GGGAGUUCUACAGUCCGACGAUC … UGGAAUUCUCGGGUGCCAA
# Construct (chain): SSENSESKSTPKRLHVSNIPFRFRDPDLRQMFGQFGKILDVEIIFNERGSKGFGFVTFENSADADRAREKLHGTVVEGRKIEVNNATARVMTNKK
Oligonucleotide,RBNS enrichment (R)
AGCACCGACUUUUUGAAAAUCAGAUAAACAUGGUUAUUGACAUUUUUUGAGUCAGAGUAGGGCUGGAGAACACUUCAUAUUUGAUGCCUUUUAGCUAAAGACAUUCAUUA,0.307
GAAAACUACACUGCUAAGCCCUGGACUUUGCCCAACCCCUUUCUAGGACCGUUUUCUCCCUCUCUCUUGUCCCUAUGGUAAAGUUCUCCCUGGCGUCCUUCUGAAACUAC,0.611
AGUUACUUCUUGUAAAAACUUUUAAGCCAUUUAUCAACAAGUUCUUGUUGACUCAGGGCAUAAUGAGUUCCUGAGACAUGCUCUUUUGGGGGCUGGGGCUUUAGCUAGAA,0.217
CAGGUGGAGCCACCUGCUGGGCUCCCCCAGAACUUUGCACACAUCUUGCUAUGUAUUAGCCGAUGUCUUUAGUGUUGAGCCUCUGGAUUCUGGGGUCUGGGCCAGUGGCC,0.342
UUAUAAUCUGAUGGAGAGAGACACCCGUCUUGGAACUGACAUAAAUUUCUGGGGUUUGAGAAAUGGGCGGGAUUUCACUGGUAGCUUCUGGAAGGUAAGAGUUGUCCAGG,0.943
GUAUUAGGUGUUAUAAGCAAUCUAGAGAUGAUUUAGCAAGUAUACAGGAGGAUGUGCCUAGGUUAUAUGCAAAUACUGUGCCAUUUUAUAUCAGGAACUUGAGCAUCUGC,1.58
AAGUCCACUGUCAACAUUAUCAGCUCUCCUCAUUUCGAGCUAUCUGCUAGUCACAGCUGAAUAGCUUUGAGGAAGGAGGUGUGGCCCCCUCACACCCAGACACCCAGACA,0.218
GAUAGCAUCCACACAAAAUUCUAUAAUCGGAAAGAUCUUUGUAACUAAUCUGAAAUACACAUAAAUGUCAGUUACAGAGGAACAUUGUUGGGGGCAGGAGGUAAAGAAAC,0.545
UCCCAGGCUCUUCUCAUCAGAGACUUCAGUUUGGGUGGGGAGUCUGCAGGUCAGGGAAGGUUCUGGUGCUUUUCGUUUGAUCCAAAAGGAGCUGAGAGCCAGAAAUGUGG,0.599
GAAGACUGGCUCAGCAAGUGGAGGUUUCAAUGUAUUUUUCAGUUGGCUCAUCAGCCAGCAUUGGUGAAUAUUCAGUUUAGGGGAACAGUUCUAGGGAGUGAGACAUUUUU,0.586
CCUGUAUAUAUUGCUUUAAUAGAGCCACGAUUUGUAUAUGUGCUGUUCAUUAGAGCAAAUUCAGGGGAAUUUUUGUUCUUUUUUUUUUUAUUUGGGGGCACUAAGUUUAG,0.892
AGUCGGGAACAUGUCCAUUCUACCUCAGGGUUGGGUGGUGCGAGGCCAAGCCAGGCCUGGCUGUGUCUGUAGUCAUUUGCCCUCUCAUUCGGCCUAUAUCUGACCAUUAG,0.191

# Study 4
# Target: Sal-like protein 4, full length isoform B (SALL4, Homo sapiens, UniProt Q9UJQ4-2, residues 1-616)
# Technique: universal PBM
# Form: double-stranded DNA, one strand shown
# Matrix: in vitro
# Concentration: not given
# Setting: 8-mer, flanks averaged, mean of replicates
# Reading: higher = stronger binding
Oligonucleotide,E-score
TGGCAGAA,-0.137
ACCCCGTC,-0.375
ACACTCGA,-0.0404
CTTGGAGC,-0.164
GCCCTCCC,-0.338
GGATGAAC,0.00321
GAGAGAGA,-0.0837
CATACAAC,0.143
AGACCTAA,-0.0741
GAACAAAA,0.182
CAAGACAC,0.049
AACGTGAT,0.155
AACATCCG,0.00046
TCGCCCGA,-0.225
ACTGACCG,-0.254
TGGTGCAA,0.0216
ATACACTC,0.208
GTAGCAAA,0.104

# For quick reference, copied from above (study 4):
Oligonucleotide,E-score
TGGCAGAA,-0.137
ACCCCGTC,-0.375
ACACTCGA,-0.0404
CTTGGAGC,-0.164
GCCCTCCC,-0.338
GGATGAAC,0.00321
GAGAGAGA,-0.0837
CATACAAC,0.143
AGACCTAA,-0.0741
